Published values collected from several papers.
Each numbered part is a random draw from the data of one study; scales do not carry over between parts.

Study 1 — technique: protein binding microarray; molecule type: double-stranded DNA, one strand shown; sample: in vitro; tested at: not given; baseline: not given; reading: higher = stronger binding
Target: Histone acetyltransferase KAT6A, winged helix 1, GST fusion (KAT6A, Homo sapiens, UniProt Q92794, residues 1-85)
Setting: 8-mer, flanks averaged, mean of 2 arrays, mostly near background
Target sequence (chain): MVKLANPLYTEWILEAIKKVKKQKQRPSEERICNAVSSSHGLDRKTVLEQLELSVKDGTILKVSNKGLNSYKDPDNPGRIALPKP
Oligonucleotide	E-score
CCTACTGC	-0.129
CAAGCAAC	-0.103
CAACCCGA	0.135
GCTAGTCA	-0.0704
ACGATTAG	-0.116
CGACGCTA	0.343
ACTATCCC	0.0112
AGCAACCA	-0.24
AGCTTGTC	0.00931
ACATCTGC	-0.074
AAGCGAGA	0.0688
GGGTCAAA	-0.109
AGCCAACC	-0.0285
AATGACCC	0.0474
CGAGCACA	-0.142
TAGTAGCA	-0.00941
GAACCGCC	0.343

Study 2 — technique: RNA Bind-n-Seq; molecule type: RNA; sample: in vitro; tested at: not given; setting: RNA with constant flanks, ends assumed; baseline: input RNA pool; reading: higher = stronger binding
Target: RING finger protein unkempt homolog, zinc fingers 1-6, GST-SBP tag (UNK, Homo sapiens, UniProt Q9C0B0, residues 30-357)
Shared flanks, not repeated: GGGAGUUCUACAGUCCGACGAUC … CAACAGAGGAUUGAGCAUCA
Target sequence (chain): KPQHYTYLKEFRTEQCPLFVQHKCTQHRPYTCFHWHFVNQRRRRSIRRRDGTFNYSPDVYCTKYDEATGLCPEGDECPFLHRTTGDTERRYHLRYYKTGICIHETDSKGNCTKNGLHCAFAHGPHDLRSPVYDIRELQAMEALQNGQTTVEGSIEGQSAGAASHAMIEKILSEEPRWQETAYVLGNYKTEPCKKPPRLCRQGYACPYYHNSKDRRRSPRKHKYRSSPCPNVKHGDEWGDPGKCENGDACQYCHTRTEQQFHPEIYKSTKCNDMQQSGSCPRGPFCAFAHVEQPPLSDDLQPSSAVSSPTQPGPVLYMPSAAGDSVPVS
Oligonucleotide	bound/input enrichment [ratio]
CUGAACAAAAUUACCAAAAACCUAGGGUUUGGGAUGGGAAUUGAAUUCCGUGAAGGCUCCCCCGUAAUCAAUAGCAAAAAUCAAUACAAACUGAAGAAAGGAAUGGUUUUCAGCAUCAAU	7.16
CUAGGCCAAUUCUGCUUCUCCAUCCCAAAGGAAGAAAAUUUGCCUUCCUUUGCCGACCCUCCGCAGGAAAGCAAAAUUAAAGGAAAAGAUAAAAGGACGCAGAGGGAAAGUGACAGCGAG	0.47
CCUUUCUGUUACUUGACUCUUCCAUUGCCUAUGAAAAAAGAACGUAGCUUGGAAGUUUAUUCCGUCCGAAUGGAUCCACUUGCUAAACCUAUGCAAUACAAAGUUAUUGUGCCCAAAAUU	0.159
UAAACUGGUGCUUUAUGUACAUGAGAUGUACUAAAAUAAGUAAUAUAGAAUUUUUCUUGCCCGGUAAAUCCAGUAAGCCAAUAAUUUUAAAGAUUCUUUAUCUGCAUCAUUGCUGUUUGU	0.257
UUAGACUGUAAGCUUGCCAAGGGCAGGGACUGUGUUUUAUUCAUCUGUAUCCAUCACAGCACCCGGCGUGGUGCAUAGCACACAGCAGUUGCUCAAUAAAUGUUUGUUGGAUUAAAUCCU	0.202
GCUACUGCAGCUGCACCUAUGAUUGGUUAUCCAAUGCCAACAGGAUAUUCCCAAUAAGACUUCCGAAGUAUAUGUAAAUGUCUGUUUUUCAUAAUUGCUCUUUAUAUUGUGUGUUAUCUG	0.333
GAUUUUGCCAUGCCCUAUUUCAUCCAGGUCAUGAAGGAGUACUUGACAAAGGUGGAUAAAUCCGAUGCUUCAGAAUCACUGAGAAAAGAAGAAGAACAAGCUACAGAGACACAACCCAUU	0.187
ACUAUUGUUAAAAUGAACUGUUGCUAUUGUGAGAUGGAUUUCCUUUCGAAUGGCACUACCUCCGGGACAUUCUAGUAUUGCUUCUAUUGUUUGGGCAUUGUGGAUAAUGUACAGAUUUAA	0.166
AAAUGACAAGCGAUAGGCUAUUGCAACCUGAGAAAGAGAACUGCUCCUUCAUCGUAAAUUCCGAAGACCAAGUAGAUAAUGGAACCAAAGUUGUUACUUUUUUCUAGUAGUUAUUUUUCC	0.866
UCCAAAAAGAUUCAGCAGAUCCAUGUGGUUUCCCAGUUUAAGAUUCUGGUCAGCUUGUCCGAAAAUAACAUUUAUGUCCAUGACCUAUUGACAUUUCAACAAAUCACUACGGUUUCAAAG	0.0977
GAGUCUAACAACAUUUUCAUUUCCGAAAGGCCAACAGAUGUUCUCCAGACAGUCAAGUUAUCCGAUCUUUCCUCUAAUCAAUUAAUUGAUGAAAAUCAGCUGUAUCUGAUAGCCCACCUG	0.193

Study 3 — technique: RNA Bind-n-Seq; molecule type: RNA; sample: in vitro; tested at: 1 µM; setting: whole 134-nt RNA, ends assumed; with: 150 mM KCl; baseline: input library; reading: higher = stronger binding
Target: Ras GTPase-activating protein-binding protein 1, RRM domain (G3BP1, Homo sapiens, UniProt Q13283)
Sequence of UniProt Q13283 (whole entry, looked up): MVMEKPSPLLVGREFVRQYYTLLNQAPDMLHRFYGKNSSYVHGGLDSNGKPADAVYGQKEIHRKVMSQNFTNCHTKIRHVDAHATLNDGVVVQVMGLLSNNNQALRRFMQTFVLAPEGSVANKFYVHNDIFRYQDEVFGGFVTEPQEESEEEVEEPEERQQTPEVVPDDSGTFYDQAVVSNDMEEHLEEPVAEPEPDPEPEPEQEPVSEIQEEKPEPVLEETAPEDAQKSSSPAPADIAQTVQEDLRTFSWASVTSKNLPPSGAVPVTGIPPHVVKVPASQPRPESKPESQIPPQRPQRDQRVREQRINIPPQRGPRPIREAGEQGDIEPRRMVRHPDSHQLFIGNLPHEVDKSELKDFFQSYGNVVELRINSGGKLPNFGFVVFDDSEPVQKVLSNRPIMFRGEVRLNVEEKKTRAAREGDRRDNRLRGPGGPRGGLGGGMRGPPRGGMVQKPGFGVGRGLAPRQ
Shared flanks, not repeated: GGGAGUUCUACAGUCCGACGAUC … UGGAAUUCUCGGGUGUCAAGG
Oligonucleotide	log2 enrichment
GCAUGAAGUAAAAACAAAUGGAAAUGCUUCGGAUAGUGGCAGGGGUGGGGGUUGCUAAGGAAAGGGUGGGAUGGGAGUGGGUAAAGAGUU	0.837
CAAGUCCUGUGCUACACAUCGUAUGUACCGAAUCGGAAAAAGGAAAGGUUUUUGGAAAGUAUUAUGUUACGCCGUUCGGAUCUGCACUUC	-0.266
CAAGUCCUGUGCUACACAUCGUAUGUACCGAAUCGGUUUGGAAAAAGGUUUUUGGAAAGUAUUAUGUUACGCCGUUCGGAUCUGCACUUC	-0.202
UGGGAGGUGGAUUUUGUUUAUUUUUUUAGCUCAUUUCCAGGGGUGGGAAUUUUUUUUUAAUAUGUGUCAUGAAUAAAGGUGUUUUUGAAA	1.24
UCAAGUCCUGUGCUACACAUCGUAUGUACCGAAUCGGGUGGGUGGGAAAAAGGGAAAGUAUUAUGUUACGCCGUUCGGAUCUGCACUUCC	0.529
GCAGGAAGUAAAAACAAAUGGAAAUGCUUCGGAUAGUGGCAGGGGUGGUGGUUGCUAAGGAAAGGGUGGGAUGGGAGUGGGUAAAGAGUU	0.91
AAGUCCUGUGCUACACAUCGUAUGUACCGAAUCGGGGUUUUGGUUUUGGGUUUUGGAAAGUAUUAUGUUACGCCGUUCGGAUCUGCACUU	-0.298
GCAGGAAGUAAAAACAAAUGGAAAUGCUUCGGAUAGUGGCAGGGGUGGGGGUUGCUAAGGAAAGGGUGGGUUGGGAGUGGGUAAAGAGUU	0.987
AGUCCUGUGCUACACAUCGUAUGUACCGAAUCGGGGAAAGGGGUUUUUGGGGUGGGGAAAGUAUUAUGUUACGCCGUUCGGAUCUGCACU	0.995
CCUGUGCUACACAUCGUAUGUACCGAAUCGGGGAAAGGGGUUUUUGGGGAAAAAAAGGGGAAAGUAUUAUGUUACGCCGUUCGGAUCUGC	0.827
CAAGUCCUGUGCUACACAUCGUAUGUACCGAAUCGGGUUUGGGUGGGAAAAAGGGAAAGUAUUAUGUUACGCCGUUCGGAUCUGCACUUC	0.803
CUGUGCUACACAUCGUAUGUACCGAAUCGGUUUUUUUGGGUUUUUUUGGGGUUUUUUUGGGGAAAGUAUUAUGUUACGCCGUUCGGAUCU	-0.3
UGGCCCUGGUGGCAUGCGGGCAGGAAGAGGUGGCCUCAUGGAUCGUGGUGGUCCCGGUGGAAUGUUCAGAGGUGGCCGUGGUGGAGACAG	1.02
UUUUACUUCUCCGCCAGGUGCUGUGCUCCAUCAUCGCCGGUACCUUGCACUAUCUCUACCUGGCCACCUUGACCUGGAUGCUGCUGGAGG	0.0162

Study 4 — technique: protein-binding microarray; molecule type: double-stranded DNA, one strand shown; sample: in vitro; tested at: 940 nM top; setting: 60-bp whole probe; with: salmon DNA 0.4 mg/ml; baseline: random background probes; reading: higher = stronger binding; shared flanks, not repeated: GCCTAGCAC … GTCTTGATTCGCTTGACGCTGCTG
Target: Interferon regulatory factor 5, full length, phosphomimetic (IRF5, Homo sapiens, UniProt Q13568-2, residues 1-514, S451D/S453D/S456D/S462D)
Oligonucleotide	fitted relative affinity [z-score]
TTAGATATCAGTTTCGAATAGTGCTAG	3.66
TTAGGGTTCGGGTTTCGGTTAGTGCTA	6.2
GACGATCTTAGTTTCGAGACGTGCTAG	4.76
CCATTTCTGTTTTTGCTTTCGTGCTAG	2.8
TCACTTGTCCCTCCGGGACTGTGCTAG	0.131
AGGGCGGCTGAGTCAGCACAGTGCTAG	-0.817
GGGTCTCTTGTTCTCTCTGGGTGCTAG	1.43
TCATTAATGAAAATTCTAACTGTGCTA	0.248
GACGATATCGGGTATCAAGACGTGCTA	0.056
TTAGGTCGCGGTCTCGGTTAGTGCTAG	1.99
TTAGATTTCGGGTTTCGACTAGTGCTA	3.56
GACGGACTGGGATTCGGGACGTGCTAG	-0.647
ATGAGCTTCAAACCATAACCGTGCTAG	-0.0147
TTAGATATCGGGACAGGATTAGTGCTA	0.353
GACGGTATCGACGCTGGGGACGTGCTA	3.19
GACGAACTGGGGTATCGAGAAGTGCTA	0.887
TCACCACCCACTCTGGCACTGTGCTAG	-0.0721
GACGATTTCAGTTTCGCGACGTGCTAG	2.15

Excerpt of the above (study 4):
Oligonucleotide	fitted relative affinity [z-score]
CCATTTCTGTTTTTGCTTTCGTGCTAG	2.8
TTAGGGTTCGGGTTTCGGTTAGTGCTA	6.2
ATGAGCTTCAAACCATAACCGTGCTAG	-0.0147
TTAGATTTCGGGTTTCGACTAGTGCTA	3.56
TTAGATATCGGGACAGGATTAGTGCTA	0.353
GACGGTATCGACGCTGGGGACGTGCTA	3.19
GGGTCTCTTGTTCTCTCTGGGTGCTAG	1.43
